Assay results of several laboratories.
Each numbered part is a random draw from the data of one study; scales do not carry over between parts.

Study 1 — technique: Phase 2a trial; host: idiopathic pulmonary fibrosis patients; quantity: patients with adverse events
Compound: CC(C)n1cnc(-c2ccc(F)cc2)c1-c1ncc(C(=O)Nc2ccc(N3CCN(C)CC3)cc2)[nH]1
measured: vision blurred; 60 mg once daily, grade 5 maximum intensity: 0%
measured: blood bilirubin increased; 60 mg once daily, grade 5 maximum intensity: 0%
measured: back pain; 60 mg once daily, grade 3 maximum intensity: 0%
measured: oral herpes; oral, 60 mg once daily, grade 1 maximum intensity: 0%
measured: respiratory tract infection; 30 mg once daily, grade 4 maximum intensity: 0%
measured: blood creatine phosphokinase increased; 60 mg once daily, grade 4 maximum intensity: 0%
measured: blood alkaline phosphatase increased; 30 mg once daily, grade 3 maximum intensity: 0%

Study 2 — effect on: enzyme activity; action: inhibitor; tested at: 0.5 µM; reference: control; quantity: remaining activity
Target: Maternal embryonic leucine zipper kinase (MELK, Homo sapiens, UniProt Q14680)
UniProt Q14680, sequence (whole entry, looked up): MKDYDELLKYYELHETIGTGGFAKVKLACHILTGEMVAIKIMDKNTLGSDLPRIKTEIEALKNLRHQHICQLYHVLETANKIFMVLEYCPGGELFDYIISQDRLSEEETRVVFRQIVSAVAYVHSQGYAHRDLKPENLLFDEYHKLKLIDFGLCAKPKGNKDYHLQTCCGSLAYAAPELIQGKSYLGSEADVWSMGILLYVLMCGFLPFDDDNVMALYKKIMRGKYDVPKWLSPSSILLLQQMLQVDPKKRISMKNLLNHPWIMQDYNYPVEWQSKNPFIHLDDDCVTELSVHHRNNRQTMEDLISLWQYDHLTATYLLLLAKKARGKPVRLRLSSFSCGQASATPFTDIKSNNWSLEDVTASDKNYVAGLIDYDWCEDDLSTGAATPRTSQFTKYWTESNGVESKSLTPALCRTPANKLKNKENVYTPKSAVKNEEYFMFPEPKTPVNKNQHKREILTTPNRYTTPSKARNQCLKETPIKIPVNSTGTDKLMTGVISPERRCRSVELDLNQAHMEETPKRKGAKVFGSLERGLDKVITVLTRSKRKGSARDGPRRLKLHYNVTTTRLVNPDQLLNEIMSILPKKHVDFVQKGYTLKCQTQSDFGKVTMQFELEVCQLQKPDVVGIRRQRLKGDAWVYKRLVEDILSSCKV
COc1cccc(-c2cc(=O)c3ccccc3o2)c1N: 94%
CCCNC(=O)Nc1ccc(Oc2ncnc3cc(OC)c(OC)cc23)cc1Cl: 86.8%
CN(C)S(=O)(=O)c1ccc2c(c1)/C(=C/c1cc3c([nH]1)CCCC3)C(=O)N2: 89.1%
O=C1NC(=O)c2c1c1c3ccccc3[nH]c1c1[nH]c3cc(Br)ccc3c21: 46.6%
c1ccc(-c2n[nH]c3c2oc2ccccc23)cc1: 77%
CN1CCN(c2ccc3nc(-c4c(N)c5c(F)cccc5[nH]c4=O)[nH]c3c2)CC1: 7.72%
O=c1cc(N2CCOCC2)oc2c(-c3ccccc3)cccc12: 91.3%
Cc1ccc(S(=O)(=O)/C=C/C#N)cc1: 92%
O=C1Nc2ccc(Br)cc2/C1=C/c1cc2c([nH]1)CCCC2: 75.6%
CCCCc1c(-c2ccc(OC)cc2)[nH]c2nccnc12: 84.4%
O=C(c1cc2cc(O)ccc2[nH]1)c1cc2cc(O)ccc2[nH]1: 49.2%

Study 3 — effect on: ligand displacement; technique: radioligand; tested at: 10 µM; quantity: inhibition
Target: 5-hydroxytryptamine receptor 1D (HTR1D, Homo sapiens, UniProt P28221)
UniProt P28221, sequence (whole entry, looked up): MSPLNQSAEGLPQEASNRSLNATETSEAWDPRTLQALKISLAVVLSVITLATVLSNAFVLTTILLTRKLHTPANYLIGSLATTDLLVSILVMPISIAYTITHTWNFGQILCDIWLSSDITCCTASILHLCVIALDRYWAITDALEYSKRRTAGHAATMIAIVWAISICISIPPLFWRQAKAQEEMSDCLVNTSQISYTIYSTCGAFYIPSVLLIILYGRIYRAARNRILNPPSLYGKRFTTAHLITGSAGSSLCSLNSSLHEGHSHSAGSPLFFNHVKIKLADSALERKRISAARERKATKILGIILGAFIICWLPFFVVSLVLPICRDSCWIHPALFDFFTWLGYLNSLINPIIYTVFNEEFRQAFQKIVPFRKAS
COc1ccc2c(O[C@@H]3C[C@H]4C(=O)N[C@]5(C(=O)O)CC5/C=C\CCCCC[C@H](NC(=O)OC5CCCC5)C(=O)N4C3)cc(-c3csc(NC(=O)C(C)C)n3)nc2c1C (some centres unmarked): 32.5%
CNC(=O)Nc1ccc2c(c1)CC[C@]21OC(=O)N(CC(=O)N(Cc2ccc(F)cc2)[C@@H](C)C(F)(F)F)C1=O: 18%
CCC(=O)N[C@H]1CC[C@@H](C(=O)N(C)c2ccc(-c3nc4ccccc4o3)cc2)C1: 6.85%
COc1cc(-c2cn(C3CCc4c(F)cccc4N(CC(F)(F)F)C3=O)nn2)ccc1-n1cnc(C)c1 (centres unmarked): -13.5%
C[C@H](c1cccc(C#N)c1)n1cc(Cl)cc(C(N)=O)c1=N: 9.16%
CSc1cccnc1N1CCN(Cc2nc3ccccc3[nH]2)CC1: 30.2%
O=C1CCc2cc(Nc3cc(OC4CCOCC4)c([N+](=O)[O-])cc3Cl)ccc2N1: 18.6%
CCC(=NO)C(C)=Cc1ccc(F)c(C)c1: 4.54%
CO[C@H]1CC[C@H](CNc2ccc(S(=O)(=O)NC(=O)c3ccc(N4CCN(CC5=C(c6ccc(Cl)cc6)CC(C)(C)CC5)CC4)cc3Oc3cnc4[nH]ccc4c3)cc2[N+](=O)[O-])CC1: 8.17%
CS(=O)(=O)c1cc(C2(NC(=O)c3cncc4c3cnn4-c3ccc(F)cc3)CC2)ccn1: 14.5%
C[C@@]1(Cc2ccc(C#N)cc2)C(=O)N(c2cc(Cl)cc(Cl)c2)c2ncc(C(=O)NC3(c4nc(C5CCC5)no4)CC3)n21: 22.4%
CN(C)C(=O)Cn1cc(-c2nc([C@@](C)(c3ccc(-c4cnc(N)nc4)cc3)C3CC3)no2)cn1: -5.95%
Cc1nc(C2CCN(C(=O)c3ccc(OC(F)(F)F)cc3N)CC2)c2ncc(N3CCN(C)CC3)cc2n1: -2.17%
CN1CCN(c2cnc3c(C4CCN(C(=O)c5ccc(OC(F)(F)F)cc5N)CC4)ncnc3c2)CC1: 16%
C[C@H](c1ccc(F)cc1)N(Cc1cccc(C(=O)O)c1)C(=O)c1cnc2ccccc2c1: -1.68%
Cn1cncc1[C@](O)(COc1ccc(C#N)cc1-c1ccc(OC(F)(F)F)cc1)c1ccc(C#N)cc1: -0.932%

Study 4 — cell line: mouse MPNST tumor cells; technique: high-content immunofluorescence imaging; measured: nuclear SOX9; tested at: 10 µM; time: 12 h; setting: mean of 2 replicates; reference: DMSO control; reading: higher = more nuclear SOX9; quantity: nuclear SOX9 intensity
NC(=O)c1cn(C2OC(CO)C(O)C2O)c2ncnc(N)c2c1=O (centres unmarked): 79.3 % of DMSO
CCCC(C(=O)OCCN(CC)CC)(c1ccccc1)c1ccccc1: 188 % of DMSO
CC(C(=O)O)c1ccc2c(c1)Cc1cccnc1O2 (centres unmarked): 95.2 % of DMSO
CCCCCCCCCCC[C@@H](C[C@@H]1OC(=O)[C@H]1CCCCCC)OC(=O)[C@H](CC(C)C)NC=O: 102 % of DMSO
COc1cc(OC)cc(-c2ccc3c(-c4ccc(F)cc4)[nH]nc3n2)c1: 119 % of DMSO
CCn1c(-c2nonc2N)nc2cncc(CNC3CCNCC3)c21: 98.6 % of DMSO
COc1cc(C(=O)N2CCC(N3CCN(C)CC3)CC2)ccc1Nc1ncc2c(n1)N(C)c1ccccc1C(=O)N2C: 301 % of DMSO

Some of these lines once more (study 1):
measured: blood alkaline phosphatase increased; 30 mg once daily, grade 3 maximum intensity: 0%
measured: blood bilirubin increased; 60 mg once daily, grade 5 maximum intensity: 0%
measured: vision blurred; 60 mg once daily, grade 5 maximum intensity: 0%
measured: oral herpes; oral, 60 mg once daily, grade 1 maximum intensity: 0%
